Experimental data from different studies.
Numbered parts are unrelated; each lists some results of a single study.
Sequence of UniProt Q07002 (whole entry, looked up): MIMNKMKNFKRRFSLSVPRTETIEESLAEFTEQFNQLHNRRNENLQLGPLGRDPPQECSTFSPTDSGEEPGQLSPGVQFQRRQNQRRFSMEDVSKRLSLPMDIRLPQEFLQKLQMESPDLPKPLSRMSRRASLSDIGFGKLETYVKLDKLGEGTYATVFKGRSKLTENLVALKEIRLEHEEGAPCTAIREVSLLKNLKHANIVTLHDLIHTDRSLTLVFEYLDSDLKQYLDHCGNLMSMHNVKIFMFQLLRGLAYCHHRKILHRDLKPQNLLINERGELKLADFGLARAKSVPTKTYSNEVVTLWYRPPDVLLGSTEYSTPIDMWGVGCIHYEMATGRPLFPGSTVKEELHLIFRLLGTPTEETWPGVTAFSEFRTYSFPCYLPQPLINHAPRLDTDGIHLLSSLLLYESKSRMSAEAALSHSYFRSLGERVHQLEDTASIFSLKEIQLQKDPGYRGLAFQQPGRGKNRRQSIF
Sequence of UniProt P42336 (whole entry, unmodified, looked up): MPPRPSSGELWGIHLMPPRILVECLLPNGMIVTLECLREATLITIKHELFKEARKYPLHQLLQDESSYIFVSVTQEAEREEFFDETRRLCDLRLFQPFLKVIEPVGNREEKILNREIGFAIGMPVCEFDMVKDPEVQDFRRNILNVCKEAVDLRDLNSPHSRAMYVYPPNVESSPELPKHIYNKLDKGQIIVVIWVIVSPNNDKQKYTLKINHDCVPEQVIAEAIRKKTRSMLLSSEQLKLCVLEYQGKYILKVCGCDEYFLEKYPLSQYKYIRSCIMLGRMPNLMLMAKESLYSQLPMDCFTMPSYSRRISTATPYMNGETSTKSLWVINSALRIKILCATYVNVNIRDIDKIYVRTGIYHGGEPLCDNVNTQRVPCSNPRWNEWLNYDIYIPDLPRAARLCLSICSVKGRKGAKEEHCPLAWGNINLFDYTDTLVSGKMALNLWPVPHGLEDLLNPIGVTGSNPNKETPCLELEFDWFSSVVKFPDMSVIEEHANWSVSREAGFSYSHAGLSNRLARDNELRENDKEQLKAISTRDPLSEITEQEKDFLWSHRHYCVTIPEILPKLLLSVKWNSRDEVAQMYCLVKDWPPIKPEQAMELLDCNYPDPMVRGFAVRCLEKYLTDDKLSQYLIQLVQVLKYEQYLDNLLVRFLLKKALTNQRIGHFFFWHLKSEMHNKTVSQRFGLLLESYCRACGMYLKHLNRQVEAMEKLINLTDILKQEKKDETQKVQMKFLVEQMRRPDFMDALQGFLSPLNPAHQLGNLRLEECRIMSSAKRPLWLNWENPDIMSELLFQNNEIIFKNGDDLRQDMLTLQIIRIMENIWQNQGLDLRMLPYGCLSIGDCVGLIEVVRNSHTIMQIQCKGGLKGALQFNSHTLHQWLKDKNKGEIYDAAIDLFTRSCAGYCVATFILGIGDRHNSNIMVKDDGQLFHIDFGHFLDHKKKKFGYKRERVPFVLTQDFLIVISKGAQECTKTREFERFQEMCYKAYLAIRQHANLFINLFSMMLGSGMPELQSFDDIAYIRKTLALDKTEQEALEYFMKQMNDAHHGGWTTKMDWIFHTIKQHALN
Sequence of UniProt Q9HC98 (whole entry, looked up): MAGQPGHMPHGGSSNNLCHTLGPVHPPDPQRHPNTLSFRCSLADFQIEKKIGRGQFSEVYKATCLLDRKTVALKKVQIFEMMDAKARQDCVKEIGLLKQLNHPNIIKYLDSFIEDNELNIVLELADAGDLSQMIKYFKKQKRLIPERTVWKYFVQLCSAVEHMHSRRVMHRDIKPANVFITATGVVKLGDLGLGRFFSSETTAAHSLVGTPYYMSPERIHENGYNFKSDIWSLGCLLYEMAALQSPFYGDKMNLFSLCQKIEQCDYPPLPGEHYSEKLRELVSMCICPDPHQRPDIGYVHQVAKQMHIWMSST
Sequence of UniProt Q8WTQ7 (whole entry, looked up): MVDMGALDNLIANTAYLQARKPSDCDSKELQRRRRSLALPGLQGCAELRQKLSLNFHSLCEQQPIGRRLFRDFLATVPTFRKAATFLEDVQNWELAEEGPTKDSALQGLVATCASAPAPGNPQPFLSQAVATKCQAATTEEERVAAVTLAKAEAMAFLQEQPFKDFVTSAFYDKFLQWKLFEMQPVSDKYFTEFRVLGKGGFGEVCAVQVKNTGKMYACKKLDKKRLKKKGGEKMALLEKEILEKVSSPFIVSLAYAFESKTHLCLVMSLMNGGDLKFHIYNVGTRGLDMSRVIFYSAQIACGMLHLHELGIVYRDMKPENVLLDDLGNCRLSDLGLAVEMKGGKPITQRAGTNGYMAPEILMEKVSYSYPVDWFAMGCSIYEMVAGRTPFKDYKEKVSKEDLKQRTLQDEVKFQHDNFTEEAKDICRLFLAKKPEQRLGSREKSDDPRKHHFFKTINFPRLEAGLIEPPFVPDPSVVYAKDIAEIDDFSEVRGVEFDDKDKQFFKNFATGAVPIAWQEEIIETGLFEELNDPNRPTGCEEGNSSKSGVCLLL
Sequence of UniProt Q9UHD2 (whole entry, looked up): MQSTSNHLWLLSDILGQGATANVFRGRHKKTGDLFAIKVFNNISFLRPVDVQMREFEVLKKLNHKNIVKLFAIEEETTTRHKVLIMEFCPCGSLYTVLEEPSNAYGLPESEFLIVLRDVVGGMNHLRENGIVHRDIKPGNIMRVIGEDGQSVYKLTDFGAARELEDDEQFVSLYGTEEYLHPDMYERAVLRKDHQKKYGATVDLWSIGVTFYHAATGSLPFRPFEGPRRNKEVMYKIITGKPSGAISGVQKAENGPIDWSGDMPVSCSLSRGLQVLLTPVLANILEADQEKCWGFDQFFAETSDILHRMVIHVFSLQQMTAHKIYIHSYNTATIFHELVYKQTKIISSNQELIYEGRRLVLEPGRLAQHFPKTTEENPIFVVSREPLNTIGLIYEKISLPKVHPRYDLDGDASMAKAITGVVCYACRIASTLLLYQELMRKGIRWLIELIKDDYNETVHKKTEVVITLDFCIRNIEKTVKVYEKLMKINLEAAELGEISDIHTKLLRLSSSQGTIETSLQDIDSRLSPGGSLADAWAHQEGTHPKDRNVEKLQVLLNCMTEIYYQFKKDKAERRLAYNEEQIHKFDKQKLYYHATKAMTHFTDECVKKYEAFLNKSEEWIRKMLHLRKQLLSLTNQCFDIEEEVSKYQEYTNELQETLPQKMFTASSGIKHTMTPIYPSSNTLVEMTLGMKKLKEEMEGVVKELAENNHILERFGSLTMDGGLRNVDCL
Sequence of UniProt P78368 (whole entry, looked up): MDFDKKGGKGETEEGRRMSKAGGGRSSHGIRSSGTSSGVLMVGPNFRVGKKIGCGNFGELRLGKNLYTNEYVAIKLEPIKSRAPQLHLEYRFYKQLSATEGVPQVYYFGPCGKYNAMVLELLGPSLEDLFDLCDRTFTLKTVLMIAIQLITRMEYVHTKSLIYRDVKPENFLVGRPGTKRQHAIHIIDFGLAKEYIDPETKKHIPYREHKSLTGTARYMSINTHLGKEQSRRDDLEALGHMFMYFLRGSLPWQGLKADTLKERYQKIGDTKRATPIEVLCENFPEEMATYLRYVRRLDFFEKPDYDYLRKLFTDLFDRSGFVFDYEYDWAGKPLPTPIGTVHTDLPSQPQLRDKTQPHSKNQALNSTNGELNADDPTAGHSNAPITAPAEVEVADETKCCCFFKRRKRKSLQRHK
Sequence of UniProt P11802 (whole entry, looked up): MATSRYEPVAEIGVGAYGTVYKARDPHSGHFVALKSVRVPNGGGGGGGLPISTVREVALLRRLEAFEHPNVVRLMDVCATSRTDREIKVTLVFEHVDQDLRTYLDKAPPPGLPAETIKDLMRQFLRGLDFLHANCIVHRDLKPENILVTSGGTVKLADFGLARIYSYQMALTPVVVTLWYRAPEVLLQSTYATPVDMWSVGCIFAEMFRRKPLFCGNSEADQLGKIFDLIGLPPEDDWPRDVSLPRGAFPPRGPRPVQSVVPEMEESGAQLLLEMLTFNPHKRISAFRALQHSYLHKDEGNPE
Sequence of UniProt P29320 (whole entry, looked up): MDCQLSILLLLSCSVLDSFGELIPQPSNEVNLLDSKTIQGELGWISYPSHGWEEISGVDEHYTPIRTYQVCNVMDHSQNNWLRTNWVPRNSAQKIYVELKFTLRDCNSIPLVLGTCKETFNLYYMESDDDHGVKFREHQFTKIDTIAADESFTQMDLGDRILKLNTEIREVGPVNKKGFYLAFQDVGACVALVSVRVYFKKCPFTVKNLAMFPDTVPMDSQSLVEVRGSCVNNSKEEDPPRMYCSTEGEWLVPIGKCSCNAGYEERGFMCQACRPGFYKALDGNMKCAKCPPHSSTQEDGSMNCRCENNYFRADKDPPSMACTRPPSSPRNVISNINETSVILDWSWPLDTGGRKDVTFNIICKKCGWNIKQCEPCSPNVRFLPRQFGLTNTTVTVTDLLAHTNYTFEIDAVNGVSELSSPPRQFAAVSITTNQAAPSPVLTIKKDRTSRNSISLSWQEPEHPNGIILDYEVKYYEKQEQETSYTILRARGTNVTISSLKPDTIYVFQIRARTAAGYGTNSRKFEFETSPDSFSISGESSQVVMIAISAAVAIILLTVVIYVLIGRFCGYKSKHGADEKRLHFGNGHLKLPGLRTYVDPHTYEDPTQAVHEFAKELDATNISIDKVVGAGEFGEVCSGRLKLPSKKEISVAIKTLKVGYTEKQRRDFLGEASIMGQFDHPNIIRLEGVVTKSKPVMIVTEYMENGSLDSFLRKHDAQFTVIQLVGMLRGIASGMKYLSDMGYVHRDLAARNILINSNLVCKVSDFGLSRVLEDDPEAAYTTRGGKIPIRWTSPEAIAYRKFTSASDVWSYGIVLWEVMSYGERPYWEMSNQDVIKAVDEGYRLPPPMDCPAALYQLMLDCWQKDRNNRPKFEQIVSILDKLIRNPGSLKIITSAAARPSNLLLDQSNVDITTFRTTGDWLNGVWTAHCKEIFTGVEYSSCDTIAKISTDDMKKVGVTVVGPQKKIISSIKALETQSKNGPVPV

Sample 1
SMILES: C[C@H]1CC[C@H](n2c3cnccc3c3cnc(Nc4ccc5c(n4)CCN(C(=O)CO)C5)nc32)CC1
Effect on: cell-free assay
Concentration: 1 µM
Phosphatidylinositol 4,5-bisphosphate 3-kinase catalytic subunit alpha isoform (PIK3CA, Homo sapiens, UniProt P42336, E545A) — remaining signal: 100%.
Cyclin-dependent kinase 18 (CDK18, Homo sapiens, UniProt Q07002) — remaining signal: 44%.
Hormonally up-regulated neu tumor-associated kinase (HUNK, Homo sapiens, UniProt P57058) — remaining signal: 80%.
It gave 99% for remaining signal (Phosphatidylinositol 4,5-bisphosphate 3-kinase catalytic subunit alpha isoform (PIK3CA, Homo sapiens, UniProt P42336, H1047L)).

Sample 2
SMILES: O=C(NC[C@@H]1[C@H]2CN(C(=O)OCc3cc(C(F)(F)F)cc(C(F)(F)F)c3)C[C@@H]12)c1ccc2[nH]nnc2c1
Effect on: cell-free assay
Method: competition with immobilised ligand
Concentration: 1 µM
Eukaryotic translation initiation factor 2-alpha kinase 1 (EIF2AK1, Homo sapiens, UniProt Q9BQI3) — remaining binding: 91%.
It gave 92% for remaining binding (Serine/threonine-protein kinase ULK1 (ULK1, Homo sapiens, UniProt O75385)).
The remaining binding was 95% (Cyclin-dependent kinase-like 2 (CDKL2, Homo sapiens, UniProt Q92772)).
It gave 100% for remaining binding (Cyclin-dependent kinase 18 (CDK18, Homo sapiens, UniProt Q07002)).
For Mitogen-activated protein kinase kinase kinase 12 (MAP3K12, Homo sapiens, UniProt Q12852): remaining binding read 100%.

Sample 3
SMILES: CCCCc1c(-c2ccc(O)cc2)[nH]c2nccnc12
Effect on: enzyme activity
Mode: inhibitor
Concentration: 0.5 µM
Reference: control
The remaining activity was 117% (Activin receptor type-1B (ACVR1B, Homo sapiens, UniProt P36896)).
It gave 112% for remaining activity (Serine/threonine-protein kinase ULK2 (ULK2, Homo sapiens, UniProt Q8IYT8)).
The remaining activity was 78.5% (Casein kinase I isoform gamma-2 (CSNK1G2, Homo sapiens, UniProt P78368)).
Serine/threonine-protein kinase TAO2 (TAOK2, Homo sapiens, UniProt Q9UL54) — remaining activity: 62.7%.
For Wee1-like protein kinase (WEE1, Homo sapiens, UniProt P30291): remaining activity read 94.6%.
Serine/threonine-protein kinase Nek6 (NEK6, Homo sapiens, UniProt Q9HC98) — remaining activity: 123%.
It gave 82.3% for remaining activity (Casein kinase I isoform gamma-3 (CSNK1G3, Homo sapiens, UniProt Q9Y6M4)).
For Tyrosine-protein kinase Lck (LCK, Homo sapiens, UniProt P06239): remaining activity read 86.8%.
The remaining activity was 97% (Angiopoietin-1 receptor (TEK, Homo sapiens, UniProt Q02763)).
The remaining activity was 95% (Ephrin type-A receptor 3 (EPHA3, Homo sapiens, UniProt P29320)).
Rhodopsin kinase GRK7 (GRK7, Homo sapiens, UniProt Q8WTQ7) — remaining activity: 82.4%.
The remaining activity was 82.1% (Serine/threonine-protein kinase TBK1 (TBK1, Homo sapiens, UniProt Q9UHD2)).
For Tyrosine-protein kinase JAK3 (JAK3, Homo sapiens, UniProt P52333): remaining activity read 92.2%.
It gave 95.4% for remaining activity (Mitogen-activated protein kinase kinase kinase 14 (MAP3K14, Homo sapiens, UniProt Q99558)).

Sample 4
Compound: CC(C)S(=O)(=O)c1ccc2nccc(Nc3ccc4sc(C5CCCC5)nc4c3)c2c1.Cl
Effect on: kinase activity
Mode: inhibitor
Concentration: 1 µM
The remaining activity was 87% (TGF-beta receptor type-1 (TGFBR1, Homo sapiens, UniProt P36897)).
It gave 97% for remaining activity (Serine/threonine-protein kinase Nek4 (NEK4, Homo sapiens, UniProt P51957)).
AP2-associated protein kinase 1 (AAK1, Homo sapiens, UniProt Q2M2I8) — remaining activity: 99%.
For Cyclin-dependent kinase 4 (CDK4, Homo sapiens, UniProt P11802): remaining activity read 102%.

Sample 5
Target: Diamine acetyltransferase 1 (Homo sapiens, UniProt P21673)
Mode: inhibitor
Concentration: 10 µM
Reference: control
Residues (P21673 1-171): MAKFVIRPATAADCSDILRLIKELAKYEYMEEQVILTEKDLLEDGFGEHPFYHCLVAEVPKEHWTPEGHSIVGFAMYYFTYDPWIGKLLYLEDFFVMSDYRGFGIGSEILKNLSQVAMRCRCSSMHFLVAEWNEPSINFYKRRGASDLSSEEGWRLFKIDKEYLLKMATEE
With `COc1ccc(-c2cc(=O)c3c(O)cc(O)cc3o2)cc1` the remaining activity was 84.8%.
`CCCCCC/C=C/CCCCCCCC(=O)O` has a remaining activity of 92.9%.
`O=C(O)c1ccc(O)cc1O` gave a remaining activity of 89.5%.
With `CC[C@H](/C=C/[C@@H](C)[C@H]1CC[C@H]2C3=CC[C@H]4C[C@@H](O)CC[C@]4(C)[C@H]3CC[C@]12C)C(C)C` the remaining activity was 104%.

For quick reference, copied from above (sample 3):
Serine/threonine-protein kinase Nek6 (NEK6, Homo sapiens, UniProt Q9HC98) — remaining activity: 123%.
The remaining activity was 97% (Angiopoietin-1 receptor (TEK, Homo sapiens, UniProt Q02763)).
It gave 112% for remaining activity (Serine/threonine-protein kinase ULK2 (ULK2, Homo sapiens, UniProt Q8IYT8)).
The remaining activity was 95% (Ephrin type-A receptor 3 (EPHA3, Homo sapiens, UniProt P29320)).
For Tyrosine-protein kinase JAK3 (JAK3, Homo sapiens, UniProt P52333): remaining activity read 92.2%.
